Measured values from different studies.
Parts stem from different laboratories: compare values within a part only.

Block 1
Target: Ras GTPase-activating protein-binding protein 1, full length (G3BP1, Homo sapiens, UniProt Q13283)
UniProt Q13283, sequence (whole entry, looked up): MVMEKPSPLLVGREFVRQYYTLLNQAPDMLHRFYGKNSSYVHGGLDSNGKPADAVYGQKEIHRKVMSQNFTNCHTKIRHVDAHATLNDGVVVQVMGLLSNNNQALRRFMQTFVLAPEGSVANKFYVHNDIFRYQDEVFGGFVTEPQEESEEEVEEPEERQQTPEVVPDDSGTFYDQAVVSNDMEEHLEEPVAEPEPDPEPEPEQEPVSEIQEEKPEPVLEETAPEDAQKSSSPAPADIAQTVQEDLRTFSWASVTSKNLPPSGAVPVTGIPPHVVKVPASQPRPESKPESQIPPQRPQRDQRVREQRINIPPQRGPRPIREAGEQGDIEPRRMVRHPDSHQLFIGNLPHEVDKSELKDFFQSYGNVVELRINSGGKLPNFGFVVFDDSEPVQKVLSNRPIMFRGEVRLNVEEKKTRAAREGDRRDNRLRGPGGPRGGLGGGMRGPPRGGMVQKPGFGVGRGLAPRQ
Method: RNA Bind-n-Seq
Molecule type: RNA
Medium: in vitro
Concentration: 200 nM
Notes: whole 134-nt RNA, ends assumed
With: 150 mM KCl
Relative to: input library
Reading: higher = stronger binding
Measurement: log2 enrichment
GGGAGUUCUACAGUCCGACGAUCAAGUCCUGUGCUACACAUCGUAUGUACCGAAUCGGGUUUGGGUUUGGGAAAAAGGGAAAGUAUUAUGUUACGCCGUUCGGAUCUGCACUUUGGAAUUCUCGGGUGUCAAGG: 0.177
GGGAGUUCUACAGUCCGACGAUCUCAAGUCCUGUGCUACACAUCGUAUGUACCGAAUCGGGGCCGGGGCCGGGCCGGGAAAGUAUUAUGUUACGCCGUUCGGAUCUGCACUUCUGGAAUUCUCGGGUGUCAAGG: -0.249
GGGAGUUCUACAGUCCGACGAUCUCAAGUCCUGUGCUACACAUCGUAUGUACCGAAUCGGAAAGGAAAAAGGAAAGGAAAGUAUUAUGUUACGCCGUUCGGAUCUGCACUUCCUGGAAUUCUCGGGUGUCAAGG: -1.08
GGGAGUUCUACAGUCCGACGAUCGUCCUGUGCUACACAUCGUAUGUACCGAAUCGGGUUUUUGGGAAAGGGAAAAAAAGGGAAAGUAUUAUGUUACGCCGUUCGGAUCUGCACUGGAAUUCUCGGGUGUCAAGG: -0.469
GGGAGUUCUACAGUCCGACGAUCCCUGUGCUACACAUCGUAUGUACCGAAUCGGGGUUUUUUUGGGGAAAAAGGGGAAAGGGGAAAGUAUUAUGUUACGCCGUUCGGAUCUGCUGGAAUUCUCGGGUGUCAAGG: 0.216
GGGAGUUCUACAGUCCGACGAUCUCAAGUCCUGUGCUACACAUCGUAUGUACCGAAUCGGGUGGGUGGGAAAAAGGGAAAGUAUUAUGUUACGCCGUUCGGAUCUGCACUUCCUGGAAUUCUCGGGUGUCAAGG: 0.863
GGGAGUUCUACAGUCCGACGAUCCACAGACAACACGCACCCACACAGACACAGAGGGAAGGGGUUGGGAUGCGGACAGGGUGCACAGCAGGGCGGGGUAGGACCCCAGCCCCUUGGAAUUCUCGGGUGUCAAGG: 1.56
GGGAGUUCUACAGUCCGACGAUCUGUGCUACACAUCGUAUGUACCGAAUCGGGGCCCCCCCGGGGCCCCCCCGGCCCCCCCGGGGAAAGUAUUAUGUUACGCCGUUCGGAUCUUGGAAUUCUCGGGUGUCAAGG: -2.01
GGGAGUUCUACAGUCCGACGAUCAAGUCCUGUGCUACACAUCGUAUGUACCGAAUCGGGAAAAAGGAAAAAGGAAAAAGGAAAGUAUUAUGUUACGCCGUUCGGAUCUGCACUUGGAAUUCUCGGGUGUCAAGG: -1.05

Block 2
Target: RNA binding protein fox-1 homolog 2, RRM domain, GST-SBP tag (RBFOX2, Homo sapiens, UniProt O43251-10, residues 100-194)
Method: RNA Bind-n-Seq
Molecule type: RNA
Medium: in vitro
Concentration: 365 nM
Notes: natural RNA segment, single round, ends assumed
Relative to: no-protein control
Reading: higher = stronger binding
Measurement: RBNS enrichment (R)
Target sequence (chain): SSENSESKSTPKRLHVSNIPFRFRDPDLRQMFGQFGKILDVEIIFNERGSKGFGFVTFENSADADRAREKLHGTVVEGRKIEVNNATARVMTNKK
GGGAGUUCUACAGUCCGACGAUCUCUCAUGAAUAUUCUUUAAGUGCUAUUUAAACCUCCCCAGCACUUAGAUGCAUAUAAUGGACUUACCUGAGGAAAGACAGCACAUAGGCAUGGGGAGAGGUAACCAAGGUUGGAAUUCUCGGGUGCCAA: 0.724
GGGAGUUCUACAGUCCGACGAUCCAGGCCCCACCAUCGGGACAUCACCCCAGCCUCUGCCAGGGGCAGAGGUAACCCCAAGCAGGGCUGGCCCCUCUAAAGAGGACAUUUCCCAGUUUGUCCUUUCUUGUCCAUGGAAUUCUCGGGUGCCAA: 0.565
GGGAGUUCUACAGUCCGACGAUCCUUUGAGUUUCCAUAUUGAAUGUGUUUGGACUAAACAAACAAUAAACUACUGAUGUCUGCAGCAUUUUCUAUGUCCCUAAUUUAAUCUAUAGUUUUUAUUGUUCCCAAAUUGGAAUUCUCGGGUGCCAA: 0.701
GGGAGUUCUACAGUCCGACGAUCAAUCUGAGCCCAGCAGGAGAGGAUGGUAGGGUUGCCAGGGCUCAGAAGUGCAAGCUGAUUACUCACCCCACCCUGCCUCGCCGCACCUUUCCUUUGUUUCCUUGGGUGAAUGGAAUUCUCGGGUGCCAA: 1.41
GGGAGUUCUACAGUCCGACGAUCCAGGAGCCUAGUGCAGGGUGAACACGAAGCUGCUUGAGCAGCAGGAGGUGGCUGGACCAUCGUACCCACGUAACCUGCCCAGGACGAUGCCUCGCUGGGGCUGAGACUUUUGGAAUUCUCGGGUGCCAA: 0.349
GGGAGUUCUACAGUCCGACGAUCCCUGGAGCUUGCAUGUUGGGACAAAUCAGGACAAGUGCCAGCAGCCUGAAUAUUUCCAGUGCCUACCUGUGGUCUGUCCAGUUCUGGCCUGUAAGCCCUUCCCUAUCAGAUGGAAUUCUCGGGUGCCAA: 1.64
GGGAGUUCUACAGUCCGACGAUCCGUUCCUUACUGCAGAAUAGCAUAUAUAUCGCUUAAUCUUAAAUUUAUUAGAUAUGAGUUGUUUUCAGACUCAGACUCCAUUUGUAUUAUAGUCUAAUAUACAGGGUAGCUGGAAUUCUCGGGUGCCAA: 0.867
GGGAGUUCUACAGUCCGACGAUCAUUCAAUAUAGACUUGCCCAAUUAGCCCAUCGAGCCUCCCUAGGCUUCCCGAUUCUCAGGUCUUCUCGGAGGCAGAUCCCUUCCUGAGCUCCAGGCUCUGACUUCACCGUUGGAAUUCUCGGGUGCCAA: 0.236

Block 3
Target: Histone acetyltransferase KAT6A, winged helix 2, GST fusion (KAT6A, Homo sapiens, UniProt Q92794, residues 85-181)
Method: protein binding microarray
Molecule type: double-stranded DNA, one strand shown
Medium: in vitro
Concentration: not given
Notes: 8-mer, flanks averaged, mean of 2 arrays, mostly near background
Relative to: not given
Reading: higher = stronger binding
Measurement: E-score
Construct (chain): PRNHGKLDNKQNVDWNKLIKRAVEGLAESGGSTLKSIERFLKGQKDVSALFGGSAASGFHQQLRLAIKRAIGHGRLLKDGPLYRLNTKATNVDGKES
ATGGCCCG: 0.177
AGGATCTC: -0.0915
GACTGGCA: -0.123
ATGTGTCA: -0.11
ACGTCAAT: -0.24
AGGATTGA: -0.0108
CAGGAGGC: 0.0134
GGTCAGTA: -0.0493
TAGTCTCA: -0.147
GGTGGAAC: 0.059
ATACAATG: -0.0692
TCTGGCAA: -0.0217
AAGTGTAT: -0.198
ATACAAGG: 0.0138
GACATGCA: -0.119
AATTTAAT: 0.177
AGGGGAAT: 0.0143
CATAAGCG: -0.0216
AACCCGAT: 0.0121
ATATGACC: -0.118
CTGAAAAA: 0.122

Block 4
Target: RING finger protein unkempt homolog, zinc fingers 1-6, GST-SBP tag (UNK, Homo sapiens, UniProt Q9C0B0, residues 30-357)
Method: RNA Bind-n-Seq
Molecule type: RNA
Medium: in vitro
Concentration: not given
Notes: RNA with constant flanks, human and mouse sites, ends assumed
Relative to: input RNA pool
Reading: higher = stronger binding
Measurement: bound/input enrichment
Target sequence (chain): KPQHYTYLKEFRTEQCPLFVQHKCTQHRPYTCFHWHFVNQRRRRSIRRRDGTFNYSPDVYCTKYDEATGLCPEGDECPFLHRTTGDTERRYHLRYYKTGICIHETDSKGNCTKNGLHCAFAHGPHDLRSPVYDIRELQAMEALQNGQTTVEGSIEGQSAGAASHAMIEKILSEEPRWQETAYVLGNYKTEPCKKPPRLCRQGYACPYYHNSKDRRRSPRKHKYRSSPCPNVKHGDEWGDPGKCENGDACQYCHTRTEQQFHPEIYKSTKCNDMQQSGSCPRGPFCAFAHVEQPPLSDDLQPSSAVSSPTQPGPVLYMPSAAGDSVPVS
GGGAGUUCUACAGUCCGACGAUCGAUGUAGUAGUCAACAUUUUUAUUAACAGUUUUGGAUCCAUUCAAGAAACAACAAUGGACUAUAGAGUUAACAUCUUCCUGAGACAAAAAUGGAAUGACCCCAGGCUGAAGCUCCCCAGUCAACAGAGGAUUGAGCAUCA: 0.952 ratio
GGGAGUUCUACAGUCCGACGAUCUUGCUAUUGUGAGAUGGAUUUUAACUGACCUAUUAAGGGUUUCUUUCGAAUGGCACUACUUUAGGGACAUUCUAGUAUUUGCUUCUAUUGUUUGGGCCUUGUGGAUAAUGUACAGAUUUACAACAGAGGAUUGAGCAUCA: 0.395 ratio
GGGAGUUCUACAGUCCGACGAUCUCUCUACCUCACCUCAGUGGUCAGGGCUGCCUCCACCCAGCAUUGGAAGAGGUCAUUGUGAAUAGAAUAGUUGAUGUGCUCAGCUGUUCACUGAACCCCUGAGCAUGAGUUGAACAUAGACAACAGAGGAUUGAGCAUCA: 3.81 ratio
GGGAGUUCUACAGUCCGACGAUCUCUGCAGAGCUGAGGGCGCCGUCUUCGGCCAGGCCGUGACACGGUGAAUUAAAGUCGGCUAUAGAUUUCUGUGAAAAUGUCGGUUCUUAUAUCACAGAGUGUGAUAAAUUAUGUGGAAGACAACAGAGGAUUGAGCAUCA: 0.157 ratio
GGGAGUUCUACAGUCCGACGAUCUAUAUUUUGGAUUCUGUUUGUGUUGAAUUUUUUAAUCAUUGUGCACAGAAGCAUCAUUGGUAGCUUUUAUAUGCAAAUGGUCAUUUCAGAUGUAUGGUGUUUUUACACUACAAAGAAGUCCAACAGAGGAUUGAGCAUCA: 0.0699 ratio
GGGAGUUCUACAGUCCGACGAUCUACCAGGCCAUCCGUAGUGGGGAAUGCCCCGCGGCCCUUGUGGGUGGGAUCAACCUGCUCCUGAAGCCGAACACCUCUGUGCAGUUCAUGAAGCUGGGCAUGCUCAGCCCGGACGGCACCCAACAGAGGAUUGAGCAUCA: 0.0435 ratio
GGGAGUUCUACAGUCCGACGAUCUCUGCAAUAGUUGGGUUUAUCUACGGGUACGUGGCUGAACAGUUUGGGUGGACUGUCUACAUAGUUAUGGCCGGAUUUGCUUUCUCCUGUUUGCUGACACUUCCUCCAUGGCCUAUCUACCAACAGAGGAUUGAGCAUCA: 0.231 ratio
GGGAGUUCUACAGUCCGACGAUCUGGCUCUGCUGUCCCUUCCGUGAUGUCGUUUUUUGGGUUUUUUUUUUUUUUGGGAGAGUCCCCGUCCUGUACCUGCAUCUAGCCCUGAGGGUGGGCAAGGGUCUCCUAGUCAUCAGGCCACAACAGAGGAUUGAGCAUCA: 0.184 ratio

For quick reference, copied from above (block 3):
TCTGGCAA: -0.0217
AAGTGTAT: -0.198
ATACAAGG: 0.0138
